Assay results collected from several papers.
Parts stem from different laboratories: compare values within a part only. Substitutions count along the parent as printed.

Block 1
Target: PABPC1L2, full length, GST fusion (mouse, UniProt A0ABA7IW68)
Technique: RNAcompete
Form: RNA
Sample: in vitro
Concentration: 20 nM
Setting: 7-mer, probes averaged, single round
Relative to: mean of 7-mers
Direction: higher = stronger binding
Residues (chain): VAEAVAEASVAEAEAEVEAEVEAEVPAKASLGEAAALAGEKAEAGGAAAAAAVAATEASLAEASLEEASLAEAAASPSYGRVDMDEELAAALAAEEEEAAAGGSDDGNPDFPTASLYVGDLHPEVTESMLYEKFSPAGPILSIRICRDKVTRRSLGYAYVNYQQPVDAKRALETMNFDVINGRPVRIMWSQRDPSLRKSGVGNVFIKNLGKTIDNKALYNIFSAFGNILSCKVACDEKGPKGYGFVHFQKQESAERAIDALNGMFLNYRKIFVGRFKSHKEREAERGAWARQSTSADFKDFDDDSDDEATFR
Sequence	7-mer Z-score
CAACGUC	-0.224
GGAGUAC	-0.162
GACCGUG	-0.0609
GACCAGU	-0.146
AGGCACA	0.242
GUCAAUC	-0.24
AGGUAGC	0.0388
CAGUAUC	-0.206

Block 2
Target: Fragile X messenger ribonucleoprotein 1, C-terminal low-complexity region (Fmr1, Mus musculus, UniProt P35922)
Technique: RNA Bind-n-Seq
Form: RNA
Sample: in vitro
Concentration: 200 nM
Setting: whole 134-nt RNA, ends assumed
With: 150 mM KCl
Relative to: input library
Direction: higher = stronger binding
Shared flanks, not repeated: GGGAGUUCUACAGUCCGACGAUC … UGGAAUUCUCGGGUGUCAAGG
Sequence	log2 enrichment
CCUGUGCUACACAUCGUAUGUACCGAAUCAAACCCCCCCAAAUUUUUAAAUUUUUUUAAAAAAGUAUUAUGUUACGCCGUUCGGAUCUGC	0.243
AAGUCCUGUGCUACACAUCGUAUGUACCGAAUCGGGUGGGAAAAAAAGGGUUUGGGAAAGUAUUAUGUUACGCCGUUCGGAUCUGCACUU	0.772
CUCAAGUCCUGUGCUACACAUCGUAUGUACCGAAUCGGCCGGGGCCGGGGCCGGAAAGUAUUAUGUUACGCCGUUCGGAUCUGCACUUCC	-0.15
UCCUGUGCUACACAUCGUAUGUACCGAAUCGGGGUGGGGAAAAAGGGGUUUUUUUGGGGAAAGUAUUAUGUUACGCCGUUCGGAUCUGCA	0.843
UUCCCACAGCCCAAAAAUCUUCUCAACAGUGUGAUUGGAAGAGCCCUCGGCAUCUCACAUGCAAAAGACAAACUAGUCUACGUGCACACA	0.299
CCUGUGCUACACAUCGUAUGUACCGAAUCGGGCCCCCCGGGCCCCCCGGGCCCCCCGGGGAAAGUAUUAUGUUACGCCGUUCGGAUCUGC	-0.678
GCAGGAAGUAAAAACAAAUGGAAAUGCUUCGGAUAGUGGCAGGGGUGGGGGUUGCUAAGGAAAGGGUGGGAUGGGACUGGGUAAAGAGUU	0.406
UCCUGUGCUACACAUCGUAUGUACCGAAUCGGGGAAAAAAAGGGGAAAAAGGGGAGGGGAAAGUAUUAUGUUACGCCGUUCGGAUCUGCA	0.658

Block 3
Target: CEBPE, bZIP domain (human)
Technique: DHFR protein complementation
Sample: yeast
Setting: single substitutions, most at no-binding floor
Relative to: wild-type JUN-FOS pair
Direction: higher = stronger binding
Starting sequence: JUN, bZIP domain (human); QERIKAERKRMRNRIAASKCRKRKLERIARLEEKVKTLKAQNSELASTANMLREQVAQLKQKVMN; partner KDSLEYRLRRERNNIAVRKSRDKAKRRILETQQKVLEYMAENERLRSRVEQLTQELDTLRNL
Variant	binding fitness [natural log]
R30H	-1.15
I28H	-1.22
Q55T	-1.33
K39N	-1.42
L52G	-1.51
N42R	-1.38
A29M	-1.15
K36T	-1.27

Mixed results
Starting sequence: viral docking peptide; TSVRRALFTGGSD
Variant	target	test	test system	setting	scale	endpoint	result
TSVREALFTGGSD [R5E]	CCNA1, cyclin fold, Cln2 fusion (human)	yeast growth competition, sequencing	yeast	strong parent motif	relative to: not given, higher = stronger binding	normalised enrichment score	-0.255

For quick reference, copied from above (block 2):
Sequence	log2 enrichment
AAGUCCUGUGCUACACAUCGUAUGUACCGAAUCGGGUGGGAAAAAAAGGGUUUGGGAAAGUAUUAUGUUACGCCGUUCGGAUCUGCACUU	0.772
UUCCCACAGCCCAAAAAUCUUCUCAACAGUGUGAUUGGAAGAGCCCUCGGCAUCUCACAUGCAAAAGACAAACUAGUCUACGUGCACACA	0.299
CUCAAGUCCUGUGCUACACAUCGUAUGUACCGAAUCGGCCGGGGCCGGGGCCGGAAAGUAUUAUGUUACGCCGUUCGGAUCUGCACUUCC	-0.15
UCCUGUGCUACACAUCGUAUGUACCGAAUCGGGGAAAAAAAGGGGAAAAAGGGGAGGGGAAAGUAUUAUGUUACGCCGUUCGGAUCUGCA	0.658
